Published values collected from several papers.
Each line is one published result; not all experiments were run side by side. ± gives the spread as reported.
B1: PLRG1 (human); sequence looked up; chain MVEEVQKHSVHTLVFRSLKRTHDMFVADNGKPVPLDEESHKRKMAIKLRNEYGPVLHMPTSKENLKEKGPQNATDSYVHKQYPANQGQEVEYFVAGTHPYPPGPGVALTADTKIQRMPSESAAQSLAVALPLQTKADANRTAPSGSEYRHPGASDRPQPTAMNSIVMETGNTKNSALMAKKAPTMPKPQWHPPWKLYRVISGHLGWVRCIAVEPGNQWFVTGSADRTIKIWDLASGKLKLSLTGHISTVRGVIVSTRSPYLFSCGEDKQVKCWDLEYNKVIRHYHGHLSAVYGLDLHPTIDVLVTCSRDSTARIWDVRTKASVHTLSGHTNAVATVRCQAAEPQIITGSHDTTIRLWDLVAGKTRVTLTNHKKSVRAVVLHPRHYTFASGSPDNIKQWKFPDGSFIQNLSGHNAIINTLTVNSDGVLVSGADNGTMHLWDWRTGYNFQRVHAAVQPGSLDSESGIFACAFDQSESRLLTAEADKTIKVYREDDTATEETHPVSWKPEIIKRKRF
UniProt P00760, sequence (whole entry, looked up): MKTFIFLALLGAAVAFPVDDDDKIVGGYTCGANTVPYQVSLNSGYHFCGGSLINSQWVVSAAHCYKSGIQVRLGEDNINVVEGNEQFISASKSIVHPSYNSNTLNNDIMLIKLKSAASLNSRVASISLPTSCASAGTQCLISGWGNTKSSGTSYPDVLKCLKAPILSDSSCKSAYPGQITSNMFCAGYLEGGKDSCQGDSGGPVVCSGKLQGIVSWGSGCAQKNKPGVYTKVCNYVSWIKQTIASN
UniProt Q12809, sequence (whole entry, looked up): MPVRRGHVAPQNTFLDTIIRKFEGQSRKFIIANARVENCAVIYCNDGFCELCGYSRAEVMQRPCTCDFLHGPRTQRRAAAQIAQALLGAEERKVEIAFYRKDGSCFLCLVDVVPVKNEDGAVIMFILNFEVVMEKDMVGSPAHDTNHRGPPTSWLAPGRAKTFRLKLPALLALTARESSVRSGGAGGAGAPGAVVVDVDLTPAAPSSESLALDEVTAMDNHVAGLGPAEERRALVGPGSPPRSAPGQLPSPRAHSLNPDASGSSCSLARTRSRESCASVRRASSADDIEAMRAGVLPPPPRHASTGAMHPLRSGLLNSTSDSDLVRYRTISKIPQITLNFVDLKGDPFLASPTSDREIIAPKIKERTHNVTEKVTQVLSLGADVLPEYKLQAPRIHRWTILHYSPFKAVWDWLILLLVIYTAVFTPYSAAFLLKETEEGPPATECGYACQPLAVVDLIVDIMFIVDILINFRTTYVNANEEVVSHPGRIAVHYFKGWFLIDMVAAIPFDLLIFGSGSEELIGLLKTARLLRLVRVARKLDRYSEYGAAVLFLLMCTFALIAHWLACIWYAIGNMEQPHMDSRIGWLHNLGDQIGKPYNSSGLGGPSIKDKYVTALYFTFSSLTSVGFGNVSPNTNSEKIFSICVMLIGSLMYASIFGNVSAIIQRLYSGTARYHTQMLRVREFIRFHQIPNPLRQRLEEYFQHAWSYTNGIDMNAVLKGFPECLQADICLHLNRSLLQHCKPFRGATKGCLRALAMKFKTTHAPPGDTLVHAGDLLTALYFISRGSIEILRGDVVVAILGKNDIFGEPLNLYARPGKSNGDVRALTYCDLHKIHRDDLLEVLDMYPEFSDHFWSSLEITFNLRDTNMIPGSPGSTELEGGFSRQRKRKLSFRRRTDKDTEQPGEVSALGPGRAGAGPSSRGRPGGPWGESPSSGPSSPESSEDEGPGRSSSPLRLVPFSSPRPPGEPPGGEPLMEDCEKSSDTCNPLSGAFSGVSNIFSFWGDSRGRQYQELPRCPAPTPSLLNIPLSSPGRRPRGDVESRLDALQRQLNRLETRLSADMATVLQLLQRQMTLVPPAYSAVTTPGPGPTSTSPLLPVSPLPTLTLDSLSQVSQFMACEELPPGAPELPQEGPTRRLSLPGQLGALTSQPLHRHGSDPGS
UniProt P05177, sequence (whole entry, looked up): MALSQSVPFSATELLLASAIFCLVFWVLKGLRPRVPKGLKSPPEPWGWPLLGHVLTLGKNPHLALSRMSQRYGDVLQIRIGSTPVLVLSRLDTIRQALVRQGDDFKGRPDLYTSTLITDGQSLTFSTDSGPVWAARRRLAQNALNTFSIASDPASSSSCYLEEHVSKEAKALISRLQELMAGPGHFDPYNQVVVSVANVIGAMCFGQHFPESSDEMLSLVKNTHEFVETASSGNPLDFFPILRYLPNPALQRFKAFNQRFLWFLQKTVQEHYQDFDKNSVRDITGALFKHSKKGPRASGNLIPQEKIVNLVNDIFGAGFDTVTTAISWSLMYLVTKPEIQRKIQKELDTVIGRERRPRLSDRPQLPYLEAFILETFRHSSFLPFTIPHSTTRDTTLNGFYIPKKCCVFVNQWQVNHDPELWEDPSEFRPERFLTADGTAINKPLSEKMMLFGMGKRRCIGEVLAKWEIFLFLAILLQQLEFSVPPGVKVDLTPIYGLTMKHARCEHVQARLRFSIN

Substance	target or system	test	system	conditions	scale	quantity	result
B1 (PLRG1)	CYB5R4 knockout human cells	PP6 interaction, 3xFLAG-PP6C IP-MS		concentration not given	reference: CYB5R4 KO over parental	log2 fold change	-0.74
coproporphyrin I		UHPLC-MS/MS	human, serum	oral, 20 mg ezetimibe, 5 h, geometric mean ezetimibe phase		serum concentration	1.29 nM
methyl-β-cyclodextrin	KCNH2 (Homo sapiens, UniProt Q12809)	steady-state activation, whole-cell patch clamp		concentration not given		half-activation voltage	-30 ± 2.2 mV
Triton X-100	HeLa			concentration not given, 4 h	reference: positive control	LDH release	< 10%
CTOP		RP-HPLC	HALO Phenyl-hexyl column	25 µM, formic acid/acetonitrile, 10 min gradient		retention time	3.64 min
prohibitin-2, human	CYB5R4 knockout human cells	PP6 interaction, 3xFLAG-PP6C IP-MS		concentration not given	reference: CYB5R4 KO over parental	log2 fold change	-0.53
Teicoplanin		measured: stability	human serum	2 days, room temperature, low QC		recovery	99.2%
colistin	Enterobacter cloacae		clinical isolate RKI 361/13			MIC	≤ 0.5 µg/mL
FNA / CGLSGLGVA-NH2 ([18F]FNA-labelled, C-amide)		ex vivo gamma counting	peptide, glioblastoma mouse model, brain	60 min post injection, together with: 500-fold excess CooP blocking		tissue uptake	0.24 %ID/g
Pexiganan	Serine protease 1 (PRSS1, Bos taurus, UniProt P00760)	LC-SLIPS		0.1 mg/mL, 37 °C, bovine trypsin, together with: 25000 ng/mL trypsin		incubation time to sliding time decrease	5 to 10 min
caspofungin			adult ICU patients, mITT, serum	dose not given, Baseline		bilirubin	20.3 µmol/L
Polymyxin B		untargeted LC-MS metabolomics, measured: L-cysteine	Sprague-Dawley rat, right cerebral cortex	intracerebroventricular, 0.75 mg/kg, 1 h	reference: NaCl control	log2 fold change	-5.7
[177Lu]Lu-DOTA-TATE		radio-HPLC	mouse serum	2 h, 37 °C, 50 MBq/nmol		intact radiolabelled peptide	98.4 ± 0.5%
alpinetin	Cytochrome P450 1A2 (CYP1A2, Homo sapiens, UniProt P05177)	LC-MS/MS	human liver microsomes	10 µM, together with: phenacetin		remaining activity	17.5 ± 2.01%
colloidal bismuth subcitrate	HeLa	cell viability, CellTiter-Glo		24 h, 37 °C, 10% FBS		highest non-toxic concentration	≤ 50 µM

A few entries again:
Substance	target or system	test	system	conditions	scale	quantity	result
prohibitin-2, human	CYB5R4 knockout human cells	PP6 interaction, 3xFLAG-PP6C IP-MS		concentration not given	reference: CYB5R4 KO over parental	log2 fold change	-0.53
